Measurements collected from several papers.
Every numbered part comes from another study and shows a few of its results, in no order. Values joined by “and” are separate records of one study, mostly repeats; a detail may differ. pEC50, pIC50, pKi: −log10 of the molar value.
UniProt P41145, sequence (whole entry, looked up): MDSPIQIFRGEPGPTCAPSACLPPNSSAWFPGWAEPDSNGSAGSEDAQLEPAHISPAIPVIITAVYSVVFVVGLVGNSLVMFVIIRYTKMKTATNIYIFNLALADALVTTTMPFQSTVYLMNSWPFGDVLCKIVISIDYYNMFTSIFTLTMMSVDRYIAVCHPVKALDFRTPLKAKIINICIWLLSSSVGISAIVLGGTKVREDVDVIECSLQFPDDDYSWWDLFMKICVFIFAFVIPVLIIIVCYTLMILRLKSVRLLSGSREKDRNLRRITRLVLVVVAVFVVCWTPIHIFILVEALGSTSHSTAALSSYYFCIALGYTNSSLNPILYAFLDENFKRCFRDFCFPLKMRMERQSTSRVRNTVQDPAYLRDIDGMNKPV

Study 1 — organism: Staphylococcus aureus; strain: USA300; tested at: 2 x MIC
SMILES: CCCCC[C@@H]1CC(=O)N[C@@H](C(C)C)C(=O)N[C@H](CCC(=O)O)C(=O)N[C@@H](CCCNC(=N)N)C(=O)NCC(=O)N2CCC[C@H]2C(=O)N[C@@H](CC(C)C)C(=O)N[C@H](CCC(N)=O)C(=O)N[C@@H](CCC(=O)O)C(=O)N[C@H](Cc2ccc(O)cc2)C(=O)N[C@H](Cc2c[nH]c3ccccc23)C(=O)NCCCC(=O)O1
time | viable cells
180 min | 500 CFU/mL and 700 CFU/mL and 800 CFU/mL
15 min | 4500 CFU/mL and 4300 CFU/mL and 4900 CFU/mL
240 min | 400 CFU/mL and 300 CFU/mL and 600 CFU/mL
0 min | 4.4e+08 CFU/mL and 3.6e+08 CFU/mL and 4.9e+08 CFU/mL

Study 2 — cell line: HCC1569; method: in-cell western; refers to: CDK1 phospho-Thr14; time: 24 h
Structure (SMILES) | pIC50
Cc1ccc(O)c(C)c1-c1cnc2[nH]c(-c3cnc(N4CCC(CN5CCN(c6ccc7c8c(cccc68)C(=O)N7C6CCC(=O)NC6=O)CC5)CC4)nc3)cc2c1C#N (racemic) | 6.10
Cc1ccc(O)c(C)c1-c1cnc2[nH]c(-c3cnc(N4CCC(CN5CCN(c6ccc(C(=O)NC7CCC(=O)NC7=O)c(F)c6)CC5)CC4)nc3)cc2c1C#N (racemic) | 6.79
Cc1ccc(O)c(C)c1-c1cnc2[nH]c(-c3cnc(N4CCC(CN5CCN(c6ccc(N7CCC(=O)NC7=O)cc6F)CC5)CC4)nc3)cc2c1C#N | 6.88

Study 3
SMILES: Cn1cc(-c2cccc(CN3CCC4(CC3)COc3c4ccc4c3CN([C@H]3CCC(=O)NC3=O)C4=O)c2)cn1
host | matrix | route | dose | setting | AUC(0-t)
cynomolgus monkey | plasma | oral | 3.02 mg/kg |  | 1290 ng·h/mL
rat |  | intravenous | 1 mg/kg | approximate dose | 947 ng·h/mL and 721 ng·h/mL and 745 ng·h/mL
rat | plasma | oral | 2.98 mg/kg |  | 2770 ng·h/mL
cynomolgus monkey | plasma | intravenous | 1 mg/kg |  | 860 ng·h/mL
rat | plasma | intravenous | 1.02 mg/kg |  | 804 ng·h/mL
rat |  | oral | 3 mg/kg | approximate dose | 1940 ng·h/mL and 2690 ng·h/mL and 3670 ng·h/mL
cynomolgus monkey |  | intravenous | 1 mg/kg |  | 1040 ng·h/mL and 787 ng·h/mL and 754 ng·h/mL
cynomolgus monkey |  | oral | 3 mg/kg |  | 1120 ng·h/mL and 1150 ng·h/mL and 1600 ng·h/mL

Mixed results
OPRD1: Delta-type opioid receptor (OPRD1, Homo sapiens, UniProt P41143)
UniProt P41143, sequence (whole entry, looked up): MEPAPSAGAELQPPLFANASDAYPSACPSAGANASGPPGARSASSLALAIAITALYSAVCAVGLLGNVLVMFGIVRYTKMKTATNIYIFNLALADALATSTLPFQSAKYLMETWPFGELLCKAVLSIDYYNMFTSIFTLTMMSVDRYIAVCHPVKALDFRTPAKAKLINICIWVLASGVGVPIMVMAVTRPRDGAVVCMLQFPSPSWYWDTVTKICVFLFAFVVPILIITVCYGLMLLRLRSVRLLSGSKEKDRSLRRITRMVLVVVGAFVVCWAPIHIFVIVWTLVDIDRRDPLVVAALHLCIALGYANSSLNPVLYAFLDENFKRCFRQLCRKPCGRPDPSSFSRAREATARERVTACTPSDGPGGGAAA
SMILES | target | observed | method | cell line | endpoint | value
CCCCCCCCN1CCC23c4c5ccc(O)c4OC2c2nc4ccccc4cc2CC3(O)C1C5 (stereo not shown) | OPRD1 | ligand displacement | radioligand |  | pKi | 8.80
N=C(N)NCCCCCCN1CCC23c4c5ccc(O)c4OC2c2nc4ccccc4cc2CC3(O)C1C5 (stereo not shown) | OPRK1 (Homo sapiens, UniProt P41145) | cell-free assay |  |  | pKi | 6.34
N=C(N)NCCCCCN1CC[C@]23c4c5ccc(O)c4O[C@H]2c2[nH]c4ccccc4c2C[C@@]3(O)[C@H]1C5 | Kappa-type opioid receptor, with Gi1 (OPRK1, Homo sapiens, UniProt P41145) |  |  | human cells | pEC50 | 6.82
NC(=O)NCCCCCCN1CCC23c4c5ccc(O)c4OC2c2nc4ccccc4cc2CC3(O)C1C5 (stereo not shown) | OPRD1 | ligand displacement | radioligand |  | pKi | 7.03

A few entries again (study 2):
Structure (SMILES) | pIC50
Cc1ccc(O)c(C)c1-c1cnc2[nH]c(-c3cnc(N4CCC(CN5CCN(c6ccc(N7CCC(=O)NC7=O)cc6F)CC5)CC4)nc3)cc2c1C#N | 6.88
Cc1ccc(O)c(C)c1-c1cnc2[nH]c(-c3cnc(N4CCC(CN5CCN(c6ccc7c8c(cccc68)C(=O)N7C6CCC(=O)NC6=O)CC5)CC4)nc3)cc2c1C#N (racemic) | 6.10
